Results collected from several papers.
Several values in a cell are separate wells, animals, samples, runs or records. ± marks the error that the study gave.
Sequence of UniProt P49116 (whole entry, looked up): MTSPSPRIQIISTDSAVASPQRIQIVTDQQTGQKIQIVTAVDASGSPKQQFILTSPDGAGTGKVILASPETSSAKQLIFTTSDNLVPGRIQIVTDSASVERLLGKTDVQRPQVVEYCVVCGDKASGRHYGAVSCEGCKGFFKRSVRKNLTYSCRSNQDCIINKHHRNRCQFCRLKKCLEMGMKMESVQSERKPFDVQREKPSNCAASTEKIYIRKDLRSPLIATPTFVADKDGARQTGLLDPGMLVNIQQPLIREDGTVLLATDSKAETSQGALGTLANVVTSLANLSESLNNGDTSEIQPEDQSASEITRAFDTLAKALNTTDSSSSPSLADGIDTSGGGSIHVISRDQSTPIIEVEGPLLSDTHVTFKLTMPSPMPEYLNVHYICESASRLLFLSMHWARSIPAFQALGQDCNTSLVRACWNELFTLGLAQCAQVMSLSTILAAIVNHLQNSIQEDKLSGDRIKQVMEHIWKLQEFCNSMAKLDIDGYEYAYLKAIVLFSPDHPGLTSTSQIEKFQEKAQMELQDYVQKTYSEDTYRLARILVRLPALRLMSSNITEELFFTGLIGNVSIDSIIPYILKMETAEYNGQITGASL

O=C(/C=C/C=C/C=C/C1CCCCC1)NC1=C[C@@](O)(/C=C/C=C/C=C/C(=O)NC2=C(O)CCC2=O)[C@@H]2O[C@@H]2C1=O
GI50 (snu61; cell growth, inhibitor, CellTiter-Glo luminescence; 78 h; relative to: day 0 cell count): 18700 nM

CC(=O)Nc1cccc(-n2c(=O)n(C3CC3)c(=O)c3c(Nc4ccc(I)cc4F)n(C)c(=O)c(C)c32)c1
fractional effect (COLO 205 (BRAF V600E); 1.56 nM; relative to: DMSO): 82%

CCOC(=O)Nc1cc(-c2ccc(C)c(NS(C)(=O)=O)c2)nn2c(C)nnc12
viability (OCI-Ly1; 0.1 µM, 120 h): 42.9%

O=C1N(Cc2cccc3ccccc23)c2ccccc2C12NN=C(c1ccccc1)S2 (centres unmarked)
protein level (NSCLC and TNBC cells; Western blot, refers to: cyclin B1; concentration not given): decreased

C[C@H](Nc1ccc2c(c1)OCCn1cc(N3C(=O)OC[C@H]3C(F)F)nc1-2)C(N)=O
Hill coefficient GR curve (KPL4; CellTiter-Glo; 120 h): 1.1

CC(=O)O[C@@]12CO[C@@H]1C[C@H](O)[C@@]1(C)C(=O)[C@H](O)C3=C(C)[C@@H](OC(=O)[C@H](O)[C@@H](NC(=O)OC(C)(C)C)c4ccccc4)C[C@@](O)([C@@H](OC(=O)c4ccccc4)[C@H]21)C3(C)C
inhibition of cell proliferation (compound-resistant VCaP-AI; trypan blue exclusion; 0.002 µM, 72 h): < 20%

CN(C)c1ccc(C(=C2C=CC(=[N+](C)C)C=C2)c2ccc(N(C)C)cc2)cc1
fitted bottom MyBP-C/MYH ratio (iPSC-derived cardiomyocytes; concentration-response fit; relative to: vehicle): 0%

[Cl-].[Cl-].[Ru+2].c1cnc2c(c1)ccc1cccnc12.c1cnc2c(c1)ccc1cccnc12.c1csc(-c2ccc(-c3ccc(-c4ccc(-c5nc6c7cccnc7c7ncccc7c6[nH]5)s4)s3)s2)c1
EC50 (SK-MEL-28; resazurin viability; normoxia, with: green light 523 nm): ~100 nM

CCn1cc(-c2cc(Cn3ccoc3=N)cc3c2CCN([C@@H](C)c2cc(OC)ccn2)C3=O)c(C(F)(F)F)n1
EC50 (SNU1196; cell growth; 120 h): 1900 nM

CC(C)NCC(O)c1ccc(O)c(O)c1 (centres unmarked)
sarcomere length (mouse ventricular cardiomyocytes; dose not given, 0.367 s): 1.8 µm

C=Cc1c2[n-]c(c1C)/C=c1\[n-]/c(c(C)c1C=C)=C\c1[n-]c(c(CCC(=O)O)c1C)/C=c1\[n-]c(c(C)c1CCC(=O)O)=C2.[Sn+4]
fold change (SH-SY5Y; RNA-seq, refers to: TGM2 mRNA; 5 µM, 5 h; relative to: untreated cells): 2.2

O=C(C[C@@H](C(F)F)n1ccc(F)n1)N1CCC(O)(Cn2cnc3c(cnn3-c3ccc(F)cc3)c2=O)CC1
S phase cells (CHP-212 parental; PI flow cytometry; 0.1 µM, 24 h): 19.4%

Nc1ncnc2c1ncn2[C@@H]1O[C@H](CSCC[C@H](N)C(=O)O)[C@@H](O)[C@H]1O
viability (OCI-Ly1; 0.1 µM, 120 h): 177%

CN(C)CCC(c1ccccc1)c1ccccn1 (centres unmarked)
Kd (Nuclear receptor subfamily 2 group C member 2, ligand-binding domain (Homo sapiens, UniProt P49116); SPR imaging): 0.441 nM

CCN(CCO)CCCC(C)Nc1ccnc2cc(Cl)ccc12 (centres unmarked)
APD90 prolongation (hiPSC-derived ventricular cardiomyocytes; current clamp, externally paced; 10 µM; relative to: pre-drug control): 315% and 57.3% and 80.4% and 126% and 92.2% and 84.6% and 124% and 74.2%

c1ccc2[nH]ccc2c1
mRNA level, LS mean (HCT-8; RNA-seq, refers to: AKAP3; concentration not given): 5.62 counts per million

CCn1c(=O)/c(=C2\Sc3cc(Cl)ccc3N2C)s/c1=C\c1scc[n+]1Cc1ccccc1
EC50 (iPSC-derived cardiomyocytes; concentration-response curve, refers to: MyBP-C protein level): 22600 nM

Fc1ccc(CNc2ccc3c[nH]nc3c2)cc1
viability (sample A patient iPSC-derived NPCs; MTS; 10 µM, 24 h; relative to: vehicle): 109 ± 7.24%

CCn1c(=Cc2cccc[n+]2C)sc(=C2Sc3ccccc3N2C)c1=O.[Cl-]
fitted top MyBP-C level (iPSC-derived cardiomyocytes; concentration-response fit; concentration not given; relative to: vehicle): 110%

CC(=O)Nc1ccc(C(=O)Nc2ccccc2N)cc1
viability (OCI-Ly1; 1 µM, 120 h): 46.5%

Clc1nc(NCc2ccco2)c2[nH]cnc2n1
ΔPSI (iPSC-derived cardiomyocytes; RNA-seq, refers to: ASPM chr1 exon ending 197105185; unit not given; relative to: DMSO minus compound): 0.253

Cc1nc2ccc(NC(=O)Cc3ccc(OC(F)(F)F)cc3)cc2[nH]1
viability (sample A patient iPSC-derived NPCs; MTS; 10 µM, 24 h; relative to: vehicle): 104 ± 1.05%

NC(=O)c1cccnc1
viability (OCI-Ly1; 0.1 µM, 120 h): 193%

CCCCCCCCCc1ccc(OCCOCCOCCOCCOCCOCCOCCOCCOCCO)cc1
fitted bottom MyBP-C level (iPSC-derived cardiomyocytes; concentration-response fit; concentration not given; relative to: vehicle): 0%

O=C(COc1cccc2c1C(=O)N(C1CCC(=O)NC1=O)C2=O)NCCOCCOCCNS(=O)(=O)Nc1cccc(-c2cn3cc(C(=O)NC4CCC4)ccc3n2)c1 (centres unmarked)
log2 fold change (MV4-11; TMT proteomics, refers to: PGLS protein; 10 µM, 16 h; relative to: DMSO): -0.063

O=C(CCCCCN1C(=O)c2cccc3cccc(c23)C1=O)NO
viability (OCI-Ly1; 0.1 µM, 120 h): 146%

Cc1cccc(-c2[nH]c(CNc3ccccc3F)nc2-c2ccc3ncnn3c2)n1
XTT absorbance (pomalidomide-resistant MM1.S cells; XTT; 0.5 µM; higher = more viable cells): 4.2 E-1 and 6.3 E-1 and 4.4 E-1

Cc1cc(Nc2ncc(Cl)c(Nc3ccccc3S(=O)(=O)C(C)C)n2)c(OC(C)C)cc1C1CCNCC1
log2 fold change (CLB-GE; phosphoproteomics LC-MS/MS, refers to: RPS6 phosphorylation; 200 nM, 60 min; relative to: untreated): -2.01

CCCCCNC(=O)N1CCC(CN(Cc2ccc(Cl)cc2)Cc2ccc([N+](=O)[O-])s2)C1 (centres unmarked)
inhibition (HepG2, control siRNA; transcription, qPCR, refers to: BMAL1 mRNA; concentration not given): 39%

Clc1ccc(N/N=C(\c2ccccc2)c2ccccn2)nc1
viability (OCI-Ly1; 1 µM, 120 h): 0.41%

CC(C)NCCCn1c(Sc2cc3c(cc2I)OCO3)nc2c(N)ncnc21
MyBP-C protein level (iPSC-derived cardiomyocytes; initial hit retest; concentration not given, 24 h, plate-normalised): 23%

COc1ccc(-n2nc(C(C)=O)s/c2=N\N=C(/C)c2ccc(NC(=O)c3ccc(Cl)cc3)cc2)cc1
toxicity (MCF7; 0.625 µM): 88.2%

COc1ccc(NC(=S)N/N=C/c2cccc3cc4ccccc4nc23)cc1
necrotic cells (HeLa; annexin V/PI flow cytometry; IC50, 48 h, with: N-acetylcysteine): 6.31 ± 0.77%

Cc1ccc(CNC(=O)Cn2cc(CSc3nc4ccccc4[nH]3)nn2)cc1
cytotoxicity (HEK293; MTT; 125 ppm): 89%

COc1cc(/C=C/C(=O)N2CCC=CC2=O)cc(OC)c1OC
mRNA level (MDA-MB-468; qRT-PCR, refers to: FAS; 30 µM, 6 h; relative to: time zero): 126 ± 34.9%

COc1cnc2cccc(N3CCc4c(cc(Cn5ccnc5C)cc4-c4cn(C)nc4C(F)(F)F)C3=O)c2c1
EC50 (SNU308; cell growth; 120 h): 232 nM

CCCCc1nc2cc(/C=C/C(=O)NO)ccc2n1CCN(CC)CC
viability (OCI-Ly1; 0.5 µM, 120 h): 4.59%

CC/C(=N\NC(=O)C(C)Nc1ccccc1)c1ccc(O)c(C)c1O (centres unmarked)
protein level (SK-OV-3; Western blot, refers to: YAP; 10 µM, 1 h, 3D gellan gum culture, unit not given; relative to: β-actin): 1.01 ± 0.19

Cn1cc(-c2ccc(-c3cncc(Cl)c3N3CCC4(CCNC4=O)CC3)cc2)cn1
log2 fold change (COLO 205; gene expression, microarray, refers to: AURKA mRNA; concentration not given, 6 h; relative to: untreated cells): -2.29

C=CC1=C(C)c2cc3[n-]c(cc4nc(cc5[n-]c(cc1n2)c(C)c5C=C)C(C)=C4CCC(=O)O)c(CCC(=O)O)c3C.[Zn+2]
fold change (SH-SY5Y; RNA-seq, refers to: SYT12 mRNA; 5 µM, 5 h; relative to: untreated cells): 2.94

CCCC(=O)O[C@H]1C[C@H]2C[C@@H](O[C@@H]3O[C@@H](C)[C@@H](O)[C@@H](O)[C@H]3OC)C[C@@H](C[C@@H](C)/C=C/C=C\C[C@@H]3O[C@@H](C[C@@H]3C)[C@@H](O)C[C@H]3C[C@@]1(O)C(=O)O3)O2
oxygen consumption rate (NCI-H292; Seahorse XF24; 1 µM; relative to: control): 25 to 30%

COc1cccc2c1C(=O)c1c(O)c3c(c(O)c1C2=O)C[C@@](O)(C(=O)CO)C[C@@H]3O[C@H]1C[C@H](N)[C@H](O)[C@H](C)O1
point of departure (HepG2; CellTiter-Glo, refers to: cellular ATP; 24 h, distribution mode 2): 0.166 µM

Cc1ncsc1-c1ccc([C@H](C)NC(=O)[C@H]2C[C@H](O)CN2C(=O)[C@@H](NC(=O)CCCCCCCCCNC(=O)c2ccc3c(c2)[C@H](NC(=O)c2cc(-c4ccc(C(=O)N(C)C)c(O)c4)on2)CC3)C(C)(C)C)cc1
log2 fold change (MV4-11; TMT proteomics, refers to: RNASE3 protein; concentration not given, 2 h; relative to: DMSO): -2.36

C[C@H]1[C@H](C)CC[C@]2(C)CC[C@]3(C)C(=CC(=O)[C@@H]4[C@@]5(C)CC[C@@H](O)[C@](C)(C(=O)NCc6cn(-c7cccc(Br)c7)nn6)[C@@H]5CC[C@]43C)[C@H]12
PD-1 positive cells (human PBMCs; flow cytometry; 5 µM; relative to: CD8- T cells): 16.1%

Nc1ccccc1NC(=O)CCCCCCC(=O)Nc1ccccc1
viability (OCI-Ly1; 0.5 µM, 120 h): 90.7%

COc1cc2ncnc(Nc3ccc(Oc4ccccc4)cc3C)c2cc1OC.O=C(O)C(F)(F)F
fractional effect (COLO 205 (BRAF V600E); resazurin; 0.3 µM, 72 h, with: trametinib 0 nM): 6%

CN1CCN(C(=O)[C@H](CCCN[C@@H]2C[C@H]2c2ccc(F)cc2)NC(=O)c2ccc(-n3ccnn3)cc2)CC1
H3K4me2 level (LN-95 and LAPC4 cells; western blot; 0.01 to 1 µM, 1 or 3 days): increased

CC(C)(c1ccc(O)cc1)c1ccc(O)cc1
G1 phase cells (HepG2 spheroids; Hoechst flow cytometry; 40 µM, 24 h): 72 ± 1.83%

CCn1cc(-c2cc(Cn3ccnc3)cc3c2CCN([C@H](c2cc(OC)ccn2)C2CC2)C3=O)c(C(F)(F)F)n1
EC50 (SCC-15; cell growth, inhibitor; 120 h): > 30000 nM

CCOC(=O)CSc1nc(-c2ccc(Cl)cc2)c2c(NC(=O)c3ccccc3)nnc-2[nH]1
growth percent (786-0; NCI60 SRB; 10 µM): 101%

Repeated from above:
Nc1ccccc1NC(=O)CCCCCCC(=O)Nc1ccccc1
viability (OCI-Ly1; 0.5 µM, 120 h): 90.7%

CCn1cc(-c2cc(Cn3ccnc3)cc3c2CCN([C@H](c2cc(OC)ccn2)C2CC2)C3=O)c(C(F)(F)F)n1
EC50 (SCC-15; cell growth, inhibitor; 120 h): > 30000 nM

CN(C)CCC(c1ccccc1)c1ccccn1 (centres unmarked)
Kd (Nuclear receptor subfamily 2 group C member 2, ligand-binding domain (Homo sapiens, UniProt P49116); SPR imaging): 0.441 nM

Nc1ncnc2c1ncn2[C@@H]1O[C@H](CSCC[C@H](N)C(=O)O)[C@@H](O)[C@H]1O
viability (OCI-Ly1; 0.1 µM, 120 h): 177%
